Results gathered from unrelated publications.
Every numbered part comes from another study and shows a few of its results, in no order. Substitutions count along the parent as printed.

Set 1 — technique: RNA Bind-n-Seq; form: RNA; matrix: in vitro; tested at: 365 nM; reference: no-protein control; reading: higher = stronger binding; quantity: RBNS enrichment (R)
Target: RNA binding protein fox-1 homolog 2, RRM domain, GST-SBP tag (RBFOX2, Homo sapiens, UniProt O43251-10, residues 100-194)
Notes: natural RNA segment, single round, ends assumed
Shared flanks, not repeated: GGGAGUUCUACAGUCCGACGAUC … UGGAAUUCUCGGGUGCCAA
ACAGGUCUCAGUAUUAGCUUGUAUUACUGUACUAUCGAGUCCAUACACGGCUCUCUAAAGCCCUACAGAGGGUUCAUGUGUUUAGACCUGAGAAAUCAGGACAUGGAAAU: 1.49
UUUCACCAGUCACAUAAACACUAUGUGGACUGGCAGUGGUUCUCUGCUCCUCCACAUCCUGGAGCGUCCCAGCACCUCCCCACCUACUUUUGUUCCCAAUGUCAGCCACC: 0.854
GCCAAGUGGAUUUGGUACAGUGCGGCUGUCUAAUAAAUAAUCAAAAGCAUUUGAUAGAAAUCUGUCUUGCAGCACUGUCUUCACAUUUAAUGUUGCUUUCUCUUCUAGUC: 0.429
UAAAUUUGUUGCUAAUCUCUGAUAAUGAAGAUUCUUACUCUGAUUCUCAGCUGAGCUGUGAGGGCUUCCAGGGAAAAUGGAACAAAAUGGUGUUCUUAGGUAAUGGGUUG: 0.735
AGCACGGGGGCCCGGAGGGAGAGCCCCUUCAGGGUUCAGAGUGAAGUACUACCUUGCCAGGGACUCAGUCAGGGGACUUUGGGAGAAAGACUUGAUAGCCAGGCUGACUG: 0.656
GCCUGUGUGUUACCACUGCCUCAUCAGGAGGCUGCCAUUGGCAGUGGCUGCUGCUGGCCUCCCUGCAAGUCCCCUCUUCUUCCUGUUGCGUGCCUGGACUCAGGAGCAUA: 1.69

Set 2 — target: CCNA2, cyclin fold, Cln2 fusion (human); technique: yeast growth competition, sequencing; matrix: yeast; notes: strong parent motif; reference: not given; reading: higher = stronger binding; quantity: normalised enrichment score
Parent: CDKN1B docking peptide (human); PSACRNLFGPVDH
YSACRNLFGPVDH [P1Y]: 3.57
PSARRNLFGPVDH [C4R]: 5.99
PSACRNLFGPVTH [D12T]: 3.72
PSAQRNLFGPVDH [C4Q]: 2.01

Set 3 — technique: protein-binding microarray; form: double-stranded DNA, one strand shown; matrix: in vitro; tested at: 0.8 µM; notes: whole 60-bp probe, no competitor; reading: higher = stronger binding; quantity: fluorescence intensity; shared flanks, not repeated: … GTCTTGATTCGCTTGACGCTGCTG
Target: Centromere-binding protein 1, full length, N-terminal tag (CBF1, Saccharomyces cerevisiae, UniProt P17106, residues 1-351)
Sequence of UniProt P17106 (whole entry, looked up): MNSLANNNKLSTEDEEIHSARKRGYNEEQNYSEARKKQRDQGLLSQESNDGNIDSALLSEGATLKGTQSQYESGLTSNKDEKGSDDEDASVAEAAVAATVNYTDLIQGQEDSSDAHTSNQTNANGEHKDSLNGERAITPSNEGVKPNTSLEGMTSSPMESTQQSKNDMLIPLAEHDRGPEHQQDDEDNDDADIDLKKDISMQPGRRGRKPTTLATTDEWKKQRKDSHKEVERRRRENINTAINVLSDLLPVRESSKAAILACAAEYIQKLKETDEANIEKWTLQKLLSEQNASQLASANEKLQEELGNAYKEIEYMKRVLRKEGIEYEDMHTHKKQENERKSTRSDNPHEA
GAAAGGGCTCTGAGTCTCGTGGTAGTGGAATCCTAG: 655 a.u.
GAATAATAGAATTTTCTGATGTTTATCTTTTTTTAG: 530 a.u.
GAATGGAGCTTTCGTCACCTTTTTTTGGCTTGTTAG: 507 a.u.
CTAGGATATTAACCTCACAACGTGATAGAAACCTTC: 1210 a.u.
GAAAAAAAGAAACGTGGTGGTACTTCGCACCCATAG: 792 a.u.
GAATTGAATATTCATGTCACGACCCACTGCCTGTAG: 1190 a.u.
CCTAACTACTATAGCCACGTTTTATAGCTTCGTACA: 558 a.u.

Single results of other studies
PhoQ, residues 284 288 289 292 302 303 TTCLQL — fold induction (PhoP, residues 12 14 15 18 19 NQAHL (Escherichia coli, UniProt P23836); Sort-seq, item: YFP reporter; E. coli; PhoQ-PhoP variant library, together with: 10 µM Mg2+; reference: high Mg2+ state, higher = stronger signaling): 0.723
